Measured values gathered from unrelated publications.
Lines come from different studies, so protocols differ. Numbers after ± are the reported error.

| Structure (SMILES) | test | test system | setting | scale | quantity | value |
| --- | --- | --- | --- | --- | --- | --- |
| CC(C)c1cnc(-c2cc(Cl)ccc2F)cc1Nc1ccncc1C(=O)NC(CO)CO | item: pSMAD2 | MC-38 tumour-bearing mouse, tumour | 10 mg/kg, 0 to 8 h average | baseline: vehicle | inhibition | 29% |
| COc1c2c(cc3oc(C)cc(=O)c13)O[C@H](C(C)(C)O[C@@H]1O[C@H](CO)[C@@H](O)[C@H](O)[C@H]1O)C2 | ear edema weight | mouse, xylene ear edema | oral, 4 mg/kg | baseline: vehicle | inhibition | 12% |
| C=CC(=O)N1C[C@H](C)N(c2nc(OC[C@@]34CCCN3C[C@H](F)C4)nc3c(F)c(-c4ccc(F)c5sc(N)c(C#N)c45)c(C(F)(F)F)cc23)C[C@H]1C | item: phospho-ERK | mouse MIA PaCa-2 Matrigel plug | 30 mg/kg single dose, 72 h | – | inhibition | 41% |
| C[C@H]1CN(C(=O)c2cn(-c3ccnc(N)n3)c3cc(C#CC4(O)CCCCC4)ccc23)CCN1 | – | B16-BL6, mouse, lung metastasis model | dose not given | – | inhibition of lung metastasis | > 90% |
| CCCC1OC2CC3C4CCC5=CC(=O)C=CC5(C)C4C(O)CC3(C)C2(C(=O)COC(=O)CN)O1 (centres unmarked) | – | mouse, xylene-induced ear edema | intraperitoneal, equivalent to 200 µg/kg budesonide, 1 h before xylene | – | inhibition of ear edema | 30.7% |
| O=c1[nH]c2ccccc2n1CCCCCN1CCN(c2ccc(F)cc2)CC1 | – | mouse | dose not given, highest dose tested, added: acetic acid | – | inhibition of writhing | ≤ 87% |
| COc1c2c(cc3oc(COC4OC(CO)C(O)C(O)C4O)cc(=O)c13)OC(C(C)(C)O)C2 (centres unmarked) | ear edema weight | mouse, xylene ear edema | oral, 1 mg/kg | baseline: vehicle | inhibition | 16% |
| CC(=O)C12NC(C)(C)CC1(C)C(=O)C1=C2c2c(c3c4n2C(C)(C)CC2=C4C4(CC(C)(C)NC(C)(C4)C2=O)CC3(C)C)C(=O)C(C)(C)N1 (single isomer, unassigned; (+)) | acetic acid-induced writhing | mouse | intraperitoneal, 5 mg/kg, 0.5 h, writhes counted over 30 min | – | inhibition | 87.1 ± 2.3% |

A few entries again:
| Structure (SMILES) | test | test system | setting | scale | quantity | value |
| --- | --- | --- | --- | --- | --- | --- |
| O=c1[nH]c2ccccc2n1CCCCCN1CCN(c2ccc(F)cc2)CC1 | – | mouse | dose not given, highest dose tested, added: acetic acid | – | inhibition of writhing | ≤ 87% |
